Published values pooled from the literature.
Numbered parts are unrelated; each lists some results of a single study. Substitutions count along the parent as printed.

Study 1
Target: RING finger protein unkempt homolog, zinc fingers 1-6, GST-SBP tag (UNK, Homo sapiens, UniProt Q9C0B0, residues 30-357)
UniProt Q9C0B0, sequence (30-357, looked up): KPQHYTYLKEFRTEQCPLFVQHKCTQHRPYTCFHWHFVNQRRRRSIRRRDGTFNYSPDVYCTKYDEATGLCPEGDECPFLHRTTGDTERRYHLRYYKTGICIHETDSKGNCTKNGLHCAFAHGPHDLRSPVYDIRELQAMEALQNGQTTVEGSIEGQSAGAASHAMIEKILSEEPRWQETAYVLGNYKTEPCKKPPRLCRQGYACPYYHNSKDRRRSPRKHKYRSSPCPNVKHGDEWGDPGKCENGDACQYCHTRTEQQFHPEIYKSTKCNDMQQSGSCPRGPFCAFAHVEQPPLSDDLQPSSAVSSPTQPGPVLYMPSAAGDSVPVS
Method: RNA Bind-n-Seq
Form: RNA
Medium: in vitro
Concentration: not given
Setting: RNA with constant flanks, human and mouse sites, ends assumed
Relative to: input RNA pool
Direction: higher = stronger binding
Shared flanks, not repeated: GGGAGUUCUACAGUCCGACGAUC … CAACAGAGGAUUGAGCAUCA
Oligonucleotide | bound/input enrichment [ratio]
UUCAUUUUACGGUAUUCCCUGGAGUUUGGUCCUCCUGACCCUGCCCAAGUGCCUACCACAGCUGUGACAAUAACUUCUUCAGCUGAGCUGUUCAAAACCACAAUAUCCACCACGAGCAGU | 0.139
AAAGAGAAAAAUCUGGAGCAGUAUAAUAAACUGGACCAGGAUCUUAAUGAAGUCAAAGCUCGAGUAGAAGAACUGGACAGAAAAUAUUACGAAGUAAAAAAUAAGAAAGAUGAACUACAA | 0.41
GUGUCGAGAGUCCCCUUCACGGAAGAGCAGCUCUUCAGCAUUUUUGACAUCGUCCCAGGCCUGGAGUAUUGUGAGGUUCCGCGAGAUCCUUAUUCAAAUUACGGUCAUGGUGUGGUUCAG | 0.15
CUGGUUGUGGUGGCGCACGCCAGUAGGAUUUGCUGAAGGAGGCAGAAGCAGGAGGAUCGCGAGUUCGAGGCCAGCCUGGUCUACACAUUUUAAACCCGGGCGUGGUGGCGCACGCCUAUA | 0.275
GCUAUAAAAUGUGUUGCUUGUAAUAAUCCUGUUACACCAAGUUUAUCUACUGCACCUCCCUCUUUUAAGUUUGGUACCUCAGAGAUGAGUAAGCCUUUCAGGAUUGGAUUUGAGGGUAUG | 0.408
UUGCUCUCUAUUUGUUCCCUUUUGACAGAUUGCAACCCUGCGGAUCCUCUGGUCGGAAGCAUAGCCACUCAGUAUUUGACCAACAGAGCAGAACAUGACAGGAUAGCCAGACAGUGGACC | 0.318
GUUAAUCAUAGCUUGGAUUUACAGCCAGUUACUUACUCAGAACCUGCAUUUUGGUGUUCGAUAGCAUAUUAUGAAUUAAAUCAGAGGGUUGGAGAAACCUUCCAUGCAUCACAGCCCUCA | 2.25
AAGAAACGGCACCUGGAAGAGUCCUACGACUCCCUGAGCGAUGAGCUUGCCAGGCUCCAGGCGCACGAAACUGUACACGAGGUAGCUCUGAAAGACAAGGAGCCAGACACACAGGACGCG | 0.205
GAGGAAUUUGGUGUUGUCUCAAAUACAAGAUUGAUUGCUGCUACUACUUCUGUAUUAAAAACUAGAUUUUCAUAUGCUUUUCCAAAGGAAUUUCCUUACAGGAUGAAUCAUAUACUAGAA | 0.588
AUUGAUUUGCUUUACAAUCAUCCACACUGUGUUUUGUGGAUCUUUAAUUAUAUAUAACAAUAGUAGUCAUUUUAAAUAUAUAUUCUGAAAUCUUUGCAAAUUUUAACAGAAGAGUCGAAG | 8.94
CUCCAAGAAAAACAGCAACAACUUCUUAAUGUACAAGAAGAGAUGAGUGAGAUGCAGAAAAAGAUUAAUGAAAUAGAGAAUUUAAAGAAUGAAUUAAAGAACAAAGAAUUGACAUUGGAA | 7.8

Study 2
Target: Centromere-binding protein 1, full length, His-tagged (CBF1, Saccharomyces cerevisiae, UniProt P17106, residues 1-351)
UniProt P17106, sequence (whole entry, looked up): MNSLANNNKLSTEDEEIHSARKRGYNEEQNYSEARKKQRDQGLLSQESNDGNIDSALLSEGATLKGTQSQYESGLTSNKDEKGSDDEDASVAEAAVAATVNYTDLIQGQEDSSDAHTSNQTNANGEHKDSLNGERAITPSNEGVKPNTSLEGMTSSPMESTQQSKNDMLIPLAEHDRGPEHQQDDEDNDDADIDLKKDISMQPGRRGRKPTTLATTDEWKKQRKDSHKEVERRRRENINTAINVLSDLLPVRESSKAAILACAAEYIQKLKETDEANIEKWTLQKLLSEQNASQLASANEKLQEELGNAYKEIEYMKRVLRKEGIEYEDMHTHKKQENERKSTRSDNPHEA
Method: competition protein-binding microarray
Form: double-stranded DNA, one strand shown
Medium: in vitro
Concentration: 2 µM
Setting: whole 60-bp probe, lowest competitor level
Together with: Pho4 competitor, 0.05 µM
Direction: higher = stronger binding
Shared flanks, not repeated: … GTCTTGATTCGCTTGACGCTGCTG
Oligonucleotide | fluorescence intensity [a.u.]
GGACCATATAGAGCATAGGTGTGGCCCGCGATCCAG | 51
GTCTTGTCTCATTGAGGCGTGGGTGTCCCCACTTCA | 78
TCAAAAAAGAAACTACACGTGCTTTTAATATACCGA | 2310
TTGTTATTTTGTCCGCGCATGTCCCGGACCCGCCAT | 58.9
TGTCCCAATTCCCAGCTCGTGGAACCTGGTGTTTTA | 59.2
TGATGTGAGTGCACTTAGTACTGATTTAGTGAGAGA | 77.1
CATGTTTCGATGTTACACGTGGAACAAGAGTTAAGA | 1100
GTCTTGTCTCATTTTCACGTGGATTTCCCCACTTCA | 417
AAATTACTAAGTTGAGTCGTGGGTGACGCCGTATGA | 72.9
CGTCCTAGTGATTGGAACGTGGGTGCCATGAGGAAG | 93
CGGGGTTAAGTTTTTCACGTGGTTTGCTTGCAGCAG | 970
AAAGCGGTAATTTGTCACCGTACTTCACATATCTAT | 82.3
CTTTCCCGATCTTGTCGTGTGGGTGTAGCACATTTG | 71.3
CGGACCCCGTCTTAGCACACGCAGACGCAGACGCAG | 52.1
AATAGCGAGGGTCGCCCCGTGGGACATGCTACTGAG | 70.4
CCTGCCGAAACGAGTCACGGCGATGAACAAAATAGG | 146
TAATGGCGGGTCAGTGACATGCGCGGACAAAATAAC | 81.9
AAGTCCTTTTCCCGTCACGTGGTCGTAGAACACTCT | 11300
TCGTCATTGTGGATACACGTGAGATTAATGCCTCAT | 1520
CAATGAATATACTGCAACGTGCCGATTGAATCCTAT | 182
CGTCAGTTGGAGCACCATGTGTCTTCTTGAAAGGAT | 105
CTAACGAAGGTTTGGACGGTGGGTGACAAGCCAAGT | 71.9
TACGTATATTGCCTTCACATGCCGAGAAAGCCGACA | 105
CGAGAATCAGGCACCCGCGTGTGAACGGCGTCATTC | 62.7
AAGGTAAGCTATCACCACGTGTTGGTGATTTAAGTT | 1130

Study 3
Target: CCNA2, cyclin fold, Cln2 fusion (human)
Method: yeast growth competition, sequencing
Medium: yeast
Setting: strong parent motif
Relative to: not given
Direction: higher = stronger binding
Starting sequence: E2F1 docking peptide (human); PPVKRRLDFETDH
Change | normalised enrichment score
PPVKRRLDTETDH [F9T] | 0.413
PPVHRRLDFETDH [K4H] | 5.71
PPVERRLDFETDH [K4E] | 3.71
PPVKRRLDNETDH [F9N] | 0.71
PPVKRRADFETDH [L7A] | 0.302
PPVKRRLDFVTDH [E10V] | 6.2
PPVKRNLDFETDH [R6N] | 3.63
PPVKRRLAFETDH [D8A] | 6.18
PPVKRRLDYETDH [F9Y] | 5.72
PPVKRRLDFQTDH [E10Q] | 6.36
PPVKRRLDFETRH [D12R] | 6.44
PPFKRRLDFETDH [V3F] | 4.74
PPVKRRLDFEPDH [T11P] | 6.2
PPVKRRPDFETDH [L7P] | 0.175
PPVKRRLDKETDH [F9K] | 0.155
PPVSRRLDFETDH [K4S] | 5.74
PPIKRRLDFETDH [V3I] | 5.51
PPVKRRLDFETPH [D12P] | 6.54
PPVKRRLDFFTDH [E10F] | 6.45
PDVKRRLDFETDH [P2D] | 5.71
PPVMRRLDFETDH [K4M] | 5.1
PPWKRRLDFETDH [V3W] | 5.36
PPVKRRNDFETDH [L7N] | -0.119
PPVKRRLDFEQDH [T11Q] | 6.14
PPVKVRLDFETDH [R5V] | 3.54

Study 4
Target: CREM, bZIP domain (human)
Method: DHFR protein complementation
Medium: yeast
Setting: single substitutions, most at no-binding floor
Relative to: wild-type JUN-FOS pair
Direction: higher = stronger binding
Starting sequence: JUN, bZIP domain (human); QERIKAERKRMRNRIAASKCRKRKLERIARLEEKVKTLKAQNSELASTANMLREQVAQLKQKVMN; partner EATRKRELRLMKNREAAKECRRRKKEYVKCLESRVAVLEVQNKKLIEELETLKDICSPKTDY
Change | binding fitness [natural log]
T37H | -1.47
T37S | -1.5
E54L | -1.5
L52S | -1.52
A46R | -1.4
R30A | -1.27
R30M | -1.26
K36E | -1.35
L52K | -1.5
T37M | -1.32
I28K | -1.43

Study 5
Target: Ras GTPase-activating protein-binding protein 1, C-terminal RGG region (G3BP1, Homo sapiens, UniProt Q13283)
UniProt Q13283, sequence (whole entry, looked up): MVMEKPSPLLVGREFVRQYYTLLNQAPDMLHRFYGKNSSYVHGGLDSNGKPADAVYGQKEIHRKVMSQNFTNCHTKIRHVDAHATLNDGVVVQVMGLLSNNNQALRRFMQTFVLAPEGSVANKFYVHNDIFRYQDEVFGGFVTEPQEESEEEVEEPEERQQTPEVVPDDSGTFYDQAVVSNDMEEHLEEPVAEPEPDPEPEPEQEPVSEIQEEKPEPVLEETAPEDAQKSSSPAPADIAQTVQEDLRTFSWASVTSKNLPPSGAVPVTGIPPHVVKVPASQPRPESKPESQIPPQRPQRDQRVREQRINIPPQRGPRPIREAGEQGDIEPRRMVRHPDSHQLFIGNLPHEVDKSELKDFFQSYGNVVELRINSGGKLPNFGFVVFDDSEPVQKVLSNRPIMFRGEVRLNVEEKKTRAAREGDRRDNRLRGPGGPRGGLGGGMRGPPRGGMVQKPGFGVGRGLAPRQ
Method: RNA Bind-n-Seq
Form: RNA
Medium: in vitro
Concentration: 1 µM
Setting: whole 134-nt RNA, ends assumed
Together with: 150 mM KCl
Relative to: input library
Direction: higher = stronger binding
Shared flanks, not repeated: GGGAGUUCUACAGUCCGACGAUC … UGGAAUUCUCGGGUGUCAAGG
Oligonucleotide | log2 enrichment
ACCAUGCAGGAAAGCAUCUUUGGGAAGUGGGGCAAGGGGGGGAUAGGGAGGGGGGUAACACUUUGGGAACAGGUGGUCCCAGGUCGUUUC | -1.17
GCAGGAAGUAAAAACAAAUGGAAAUGCUUCGGAUAGUGGCAGGGGUGGGGGUUUCUAAGGAAAGGGUGGGAUGGGAGUGGGUAAAGAGUU | 0.911
CACAGACAACACGCACCCACACAGACACAGAGGGAAGGGGUUGGGAUGGGGACAGGGUGCACAGCAGGGCGCGGUAGGACCCCAGCCCCU | -0.835
CACAGACAACACGCACCCACACAGACACAGAGGGAAGGGGUUGGGAUGGGGACAGGGUGCACAGCAGGGCGGGGUAGGACCCUAGCCCCU | -1.17
UUCCCUGGUGUGAUUCCGUCCUGCGCGGUUGUUCUCUGGAGCAGCGUUCUUUUAUCUCCGUCCGCCUUCUCUCCUACCUAAGUGCGUGCC | 0.483
UCCUGUGCUACACAUCGUAUGUACCGAAUCGGUUUUUUGGGUUUUUUGGGUUUUUUGGGGAAAGUAUUAUGUUACGCCGUUCGGAUCUGC | -0.907
CUGUGCUACACAUCGUAUGUACCGAAUCGGGCCCCCCCGGGCCCCCCCGGGGCCCCCCCGGAAAGUAUUAUGUUACGCCGUUCGGAUCUG | -1.76
UGGGAGGUGGAUUUUGUUUAUUUUUUUAGCUCAUUUCCAGGGGUGGGAUUUUUUUUUUAAUAUGUGUCAUGAAUAAAGUUGUUUUUGAAA | 3.18
UAACUUUAGAGGAGGAUCUGAUGGAUAUGGCAGUCGACGUGGAUUUGGGGAUGGCUAUAAUGGGUAUGGAGGAGGACCUGGAGGUGGCAA | -0.527
ACCAUGCAGGUGGGCAUCUUUGGGAAGUGGGGCAAGGGGGGGAUAGGGAGGGGGUUAACACUUUGGGAACAGGUGGUCCCAGGUCGUUUC | 1.97
CUCAAGUCCUGUGCUACACAUCGUAUGUACCGAAUCGGAAGGGGAAGGGAAGGGAAAGUAUUAUGUUACGCCGUUCGGAUCUGCACUUCC | 1.45
AAGUCCUGUGCUACACAUCGUAUGUACCGAAUCGGGCCCCGGGGCCCCGGCCCCGGAAAGUAUUAUGUUACGCCGUUCGGAUCUGCACUU | -2.35
CACAGACAACACGCACCCACACAGACACAGAGUGAAGGGGUUGGGAUGGGGACAGGGUGCACAGCAGGGCGGGGUAGGACCCCAGCCCCU | -0.171
UAACUUUAGAGGAGGAUCUGAUGGAUAUGGCAGUGGACGUGGAUUUGGGGAUGGCUAUAAUGGGUAUGGAGGAGGACCUCGAGGUGGCAA | -0.786

For quick reference, copied from above (study 2):
Oligonucleotide | fluorescence intensity [a.u.]
AAATTACTAAGTTGAGTCGTGGGTGACGCCGTATGA | 72.9
CGTCCTAGTGATTGGAACGTGGGTGCCATGAGGAAG | 93
CGGGGTTAAGTTTTTCACGTGGTTTGCTTGCAGCAG | 970
AAAGCGGTAATTTGTCACCGTACTTCACATATCTAT | 82.3
CTTTCCCGATCTTGTCGTGTGGGTGTAGCACATTTG | 71.3
CGGACCCCGTCTTAGCACACGCAGACGCAGACGCAG | 52.1
AATAGCGAGGGTCGCCCCGTGGGACATGCTACTGAG | 70.4
CCTGCCGAAACGAGTCACGGCGATGAACAAAATAGG | 146
TAATGGCGGGTCAGTGACATGCGCGGACAAAATAAC | 81.9
